Measured values collected from several papers.
Parts stem from different laboratories: compare values within a part only. Substitutions count along the parent as printed.

Block 1 — target: CCND1, cyclin fold, Cln2 fusion (human); method: yeast growth competition, sequencing; medium: yeast; notes: weak parent motif; relative to: not given; reading: higher = stronger binding
Starting sequence: WEE1 docking peptide (human); HKTFRKLRLFDTP
Change | normalised enrichment score
HKTTRKLRLFDTP [F4T] | 0.706
HKTFRKLRLVDTP [F10V] | -0.971
HKTPRKLRLFDTP [F4P] | -0.206
HKQFRKLRLFDTP [T3Q] | -0.0995
HKTFRKLRLFYTP [D11Y] | -0.361
LKTFRKLRLFDTP [H1L] | -0.14
HKTVRKLRLFDTP [F4V] | 0.134

Block 2 — method: protein-binding microarray; form: double-stranded DNA, one strand shown; medium: in vitro; concentration: 2200 nM top; notes: 60-bp whole probe; together with: salmon DNA 0.4 mg/ml; relative to: random background probes; reading: higher = stronger binding; constant ends, left off below: GCCTAGCAC … GTCTTGATTCGCTTGACGCTGCTG
Target: Interferon regulatory factor 7, full length, phosphomimetic (IRF7, Homo sapiens, UniProt Q92985, residues 1-503, S471D/S472D/S475D/S476D/S477D/S483D/S484D/S487D)
Target sequence (chain): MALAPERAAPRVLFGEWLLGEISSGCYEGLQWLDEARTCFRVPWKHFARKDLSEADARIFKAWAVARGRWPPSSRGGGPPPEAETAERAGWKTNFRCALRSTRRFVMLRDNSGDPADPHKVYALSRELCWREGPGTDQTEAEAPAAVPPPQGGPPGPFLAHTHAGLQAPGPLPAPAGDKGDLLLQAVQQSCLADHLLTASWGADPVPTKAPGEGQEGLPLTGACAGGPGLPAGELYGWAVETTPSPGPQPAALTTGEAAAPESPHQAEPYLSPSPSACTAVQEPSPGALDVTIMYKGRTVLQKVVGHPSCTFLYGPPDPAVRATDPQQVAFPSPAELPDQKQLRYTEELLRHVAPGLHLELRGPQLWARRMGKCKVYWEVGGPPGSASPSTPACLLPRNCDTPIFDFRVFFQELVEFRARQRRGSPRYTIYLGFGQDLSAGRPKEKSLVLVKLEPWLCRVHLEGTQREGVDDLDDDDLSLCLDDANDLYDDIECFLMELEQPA
Oligonucleotide | fitted relative affinity [z-score]
TCAACAATGATGTTTTGAACTGTGCTA | 0.00334
CACGGACTGGACTTTCGGGACGTGCTA | 1.93
GACGAGCTGGGGTATCGAGACGTGCTA | -0.256
GACGATTCCAGTTTTGAGACGTGCTAG | 1.02
TCATTTATGTCCTGTCTAACTGTGCTA | 1.77
GACGGACTAGGACTGGGGACGTGCTAG | -0.552

Block 3 — method: RNA Bind-n-Seq; form: RNA; medium: in vitro; concentration: 1 µM; notes: whole 134-nt RNA, ends assumed; together with: 150 mM KCl; relative to: input library; reading: higher = stronger binding
Target: Ras GTPase-activating protein-binding protein 1, C-terminal RGG region (G3BP1, Homo sapiens, UniProt Q13283)
Chain of UniProt Q13283 (whole entry, looked up): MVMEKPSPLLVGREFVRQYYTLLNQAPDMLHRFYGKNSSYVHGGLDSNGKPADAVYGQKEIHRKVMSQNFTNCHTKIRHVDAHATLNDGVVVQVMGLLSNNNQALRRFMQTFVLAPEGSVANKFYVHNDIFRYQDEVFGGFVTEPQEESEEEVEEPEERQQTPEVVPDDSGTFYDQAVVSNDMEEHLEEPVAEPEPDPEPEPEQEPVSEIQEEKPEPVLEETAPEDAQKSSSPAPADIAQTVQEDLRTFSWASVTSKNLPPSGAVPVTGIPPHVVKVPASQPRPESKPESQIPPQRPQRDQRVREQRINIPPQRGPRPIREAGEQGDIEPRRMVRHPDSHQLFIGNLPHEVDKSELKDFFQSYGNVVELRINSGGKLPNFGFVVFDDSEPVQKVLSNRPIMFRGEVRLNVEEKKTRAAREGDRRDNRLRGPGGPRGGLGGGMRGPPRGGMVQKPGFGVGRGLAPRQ
Oligonucleotide | log2 enrichment
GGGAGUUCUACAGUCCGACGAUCUCAAGUCCUGUGCUACACAUCGUAUGUACCGAAUCGGUUUGGAAAAAGGAAAGGAAAGUAUUAUGUUACGCCGUUCGGAUCUGCACUUCCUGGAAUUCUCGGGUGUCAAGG | -1.39
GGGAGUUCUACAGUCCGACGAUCCUGUGCUACACAUCGUAUGUACCGAAUCGGGGAAAAAAAGGGGUUUGGGGUUUUUUUGGGGAAAGUAUUAUGUUACGCCGUUCGGAUCUGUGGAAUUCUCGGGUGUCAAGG | 1.02
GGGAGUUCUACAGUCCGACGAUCACCAUGCAGGUGGGCAUCUUUGGGAAGUGGGGCAAGGGGGGGAUACGGAGGGGGGUAACACUUUGGGAACAGGUGGUCCCAGGUCGUUUCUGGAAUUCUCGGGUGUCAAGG | 2.14
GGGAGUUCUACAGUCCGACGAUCUGGGAGCUGGAUUUUGUUUAUUUUUUUAGCUCAUUUCCAGGGGUGGGAAUUUUUUUUUAAUAUGUGUCAUGAAUAAAGUUGUUUUUGAAAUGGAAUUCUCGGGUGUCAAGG | 3.09
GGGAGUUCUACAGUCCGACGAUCUCCUGUGCUACACAUCGUAUGUACCGAAUCGGGGCCCCCGGCCCCCGGGGCCCCCGGGGAAAGUAUUAUGUUACGCCGUUCGGAUCUGCAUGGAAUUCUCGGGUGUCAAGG | -1.74
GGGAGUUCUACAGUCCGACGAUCCUCAAGUCCUGUGCUACACAUCGUAUGUACCGAAUCGGUUUUUGGAAAGGUGGAAAGUAUUAUGUUACGCCGUUCGGAUCUGCACUUCCAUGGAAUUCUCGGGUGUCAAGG | -1.02
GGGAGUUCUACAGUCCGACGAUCCUCAAGUCCUGUGCUACACAUCGUAUGUACCGAAUCGGAAAGGAAAGGGAAAGGAAAGUAUUAUGUUACGCCGUUCGGAUCUGCACUUCCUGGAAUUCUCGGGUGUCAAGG | -1.47

Single results of other studies
Substance | target | test | system | conditions | scale | endpoint | value
PhoQ, residues 284 288 289 292 302 303 NSMLDC | PhoP, residues 12 14 15 18 19 VQGLL (Escherichia coli, UniProt P23836) | Sort-seq, item: YFP reporter | E. coli | PhoQ-PhoP variant library, together with: 10 µM Mg2+ | relative to: high Mg2+ state, higher = stronger signaling | fold induction | 14.2

A few entries again (block 1):
Change | normalised enrichment score
LKTFRKLRLFDTP [H1L] | -0.14
HKTVRKLRLFDTP [F4V] | 0.134
